Assay results collected from several papers.
Values joined by “and” are separate records of one study, mostly repeats; a detail may differ. Numbers after ± are the reported error.
Palmitoyl-protein thioesterase 1: Palmitoyl-protein thioesterase 1 (Homo sapiens, UniProt P50897)
UniProt P50897, sequence (whole entry, looked up): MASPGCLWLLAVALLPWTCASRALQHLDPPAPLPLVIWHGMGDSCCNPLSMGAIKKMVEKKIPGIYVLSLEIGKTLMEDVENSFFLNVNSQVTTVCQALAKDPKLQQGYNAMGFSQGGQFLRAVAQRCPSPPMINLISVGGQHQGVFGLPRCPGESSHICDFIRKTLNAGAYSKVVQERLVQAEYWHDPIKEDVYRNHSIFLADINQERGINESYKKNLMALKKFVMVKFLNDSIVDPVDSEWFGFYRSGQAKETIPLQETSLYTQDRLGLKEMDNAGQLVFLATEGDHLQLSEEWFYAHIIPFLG
TACR1: Substance-P receptor (TACR1, Homo sapiens, UniProt P25103)
UniProt P25103, sequence (whole entry, looked up): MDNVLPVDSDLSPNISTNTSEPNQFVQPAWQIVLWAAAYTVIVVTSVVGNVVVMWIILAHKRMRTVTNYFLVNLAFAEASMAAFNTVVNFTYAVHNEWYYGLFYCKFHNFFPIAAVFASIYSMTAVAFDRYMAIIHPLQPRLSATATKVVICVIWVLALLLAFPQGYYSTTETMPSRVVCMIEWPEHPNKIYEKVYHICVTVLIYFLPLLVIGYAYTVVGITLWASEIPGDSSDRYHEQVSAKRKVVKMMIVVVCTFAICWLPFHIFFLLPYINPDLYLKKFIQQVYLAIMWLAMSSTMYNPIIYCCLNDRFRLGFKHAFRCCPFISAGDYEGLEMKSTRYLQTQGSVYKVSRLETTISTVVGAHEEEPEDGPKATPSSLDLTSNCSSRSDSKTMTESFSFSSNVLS
SRC SH3-SH2-kinase domain: Proto-oncogene tyrosine-protein kinase Src, SH3-SH2-kinase domain (SRC, Gallus gallus, UniProt P00523)
Genome polyprotein NS3 helicase domain: Genome polyprotein, NS3 helicase domain (Hepatitis C virus genotype 1b, UniProt Q9WMX2)
UniProt P43351, sequence (whole entry, looked up): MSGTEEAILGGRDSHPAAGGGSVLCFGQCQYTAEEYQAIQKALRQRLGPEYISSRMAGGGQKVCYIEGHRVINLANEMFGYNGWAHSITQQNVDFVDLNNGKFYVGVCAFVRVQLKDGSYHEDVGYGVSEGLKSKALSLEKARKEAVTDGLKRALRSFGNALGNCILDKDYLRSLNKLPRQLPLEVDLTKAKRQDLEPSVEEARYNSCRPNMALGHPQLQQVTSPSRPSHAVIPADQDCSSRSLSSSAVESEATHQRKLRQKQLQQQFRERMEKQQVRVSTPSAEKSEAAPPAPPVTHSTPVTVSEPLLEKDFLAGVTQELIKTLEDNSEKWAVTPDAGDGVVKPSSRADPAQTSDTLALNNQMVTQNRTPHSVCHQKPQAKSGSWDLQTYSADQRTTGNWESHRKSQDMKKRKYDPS
UniProt Q86VZ5, sequence (whole entry, looked up): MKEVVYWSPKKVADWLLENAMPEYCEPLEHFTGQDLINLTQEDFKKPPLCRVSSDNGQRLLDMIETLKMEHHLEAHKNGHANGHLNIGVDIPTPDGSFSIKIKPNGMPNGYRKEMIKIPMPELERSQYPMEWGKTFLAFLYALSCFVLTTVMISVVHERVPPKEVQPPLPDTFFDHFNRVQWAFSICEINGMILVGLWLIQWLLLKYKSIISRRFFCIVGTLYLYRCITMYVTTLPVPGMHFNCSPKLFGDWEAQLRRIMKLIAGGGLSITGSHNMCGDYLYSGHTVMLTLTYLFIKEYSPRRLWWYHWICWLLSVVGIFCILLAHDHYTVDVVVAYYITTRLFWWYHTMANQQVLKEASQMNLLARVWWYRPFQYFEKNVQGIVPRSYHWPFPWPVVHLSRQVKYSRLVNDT
UniProt P30837, sequence (whole entry, looked up): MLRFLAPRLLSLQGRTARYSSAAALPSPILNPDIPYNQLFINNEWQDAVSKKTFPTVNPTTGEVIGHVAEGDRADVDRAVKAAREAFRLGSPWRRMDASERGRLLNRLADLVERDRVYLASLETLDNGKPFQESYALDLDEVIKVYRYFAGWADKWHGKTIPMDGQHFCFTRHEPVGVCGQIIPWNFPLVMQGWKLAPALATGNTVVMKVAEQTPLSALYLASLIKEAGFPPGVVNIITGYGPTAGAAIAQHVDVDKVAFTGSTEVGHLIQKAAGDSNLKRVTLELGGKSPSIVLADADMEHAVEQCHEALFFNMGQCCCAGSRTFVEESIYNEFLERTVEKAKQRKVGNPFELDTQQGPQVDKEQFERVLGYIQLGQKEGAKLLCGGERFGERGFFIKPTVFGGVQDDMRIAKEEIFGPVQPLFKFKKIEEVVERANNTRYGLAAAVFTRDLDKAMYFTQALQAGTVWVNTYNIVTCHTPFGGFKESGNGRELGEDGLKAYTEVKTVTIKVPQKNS

Compound | target | assay | test system | setting | IC50
COc1cccc(Cc2cc(CCC(=O)NC3=C(C)C4=C(C)c5c(C)cc(C)n5[B-](F)(F)[N+]4=C3C)nn(CC(=O)Nc3ccc(Br)cc3)c2=O)c1 | FPR2 (Homo sapiens, UniProt P25090) | calcium mobilization, antagonist | HL-60 transfected with target | together with: WKYMVM 5 nM | 1.6 ± 1.4 µM
CN(CCCCCCNc1ccnc2cc(Cl)ccc12)CCCCCCNc1ccnc2cc(Cl)ccc12 | Palmitoyl-protein thioesterase 1 | enzyme activity, inhibitor |  |  | 130 µM and ~130 µM
CC1OC(Oc2c(-c3ccc(O)cc3)oc3cc(O)cc(O)c3c2=O)C(OC(=O)C=Cc2ccc(O)cc2)C(O)C1OC(=O)C=Cc1ccc(O)cc1 (centres unmarked) | CCR6 (Homo sapiens, UniProt P51684) | calcium flux, antagonist | 293FT GCaMP6 transfected |  | > 10 µM
CNC(=O)N(C)c1ccc(C(=O)Nc2ccc(Cl)cc2C(=O)Nc2ccc(Cl)cn2)cc1 | F10 (Homo sapiens, UniProt P00742) | enzyme activity, inhibitor, absorbance |  |  | 0.00025 µM
Cc1ccccc1-c1cc(N2CCOCC2)ccc1N(C)C(=O)C(C)(C)c1cc(C(F)(F)F)cc(C(F)(F)F)c1 | TACR1 | IP1 accumulation, antagonist, HTRF |  | 90 min preincubation, together with: substance P 10 nM | 0.135 µM
Cc1nn(-c2ccccc2)nc1CNS(=O)(=O)c1c(C)nn(C)c1C | Trypanothione synthetase (Trypanosoma brucei, UniProt Q586P2) | enzyme activity, inhibitor |  |  | 2.6 µM
COC(=O)N1CCC(CN2CCC(CNC(=O)c3cccc4[nH]c(C(C)C)nc34)CC2)CC1 | SLC22A8 (Homo sapiens, UniProt Q8TCC7) | transporter uptake, inhibitor |  |  | > 10 µM
NC(=O)[C@@H]1CCCNC(=O)[C@H](Cc2ccc([N+](=O)[O-])cc2)NC(=O)[C@H](Cc2ccccc2)NC(=O)[C@H](C(c2ccccc2)c2ccccc2)NC(=O)/C=C/C(=O)N1 | SRC SH3-SH2-kinase domain | enzyme activity, inhibitor, Z'-LYTE FRET |  | Src residues 83-533, together with: 50 µM ATP | 1.3 ± 0.2 µM
Cc1noc(C)c1N(C)S(=O)(=O)c1ccc(C(=O)O)cc1Br | DNA repair protein RAD52 homolog, with RPA and ssDNA (RAD52, Homo sapiens, UniProt P43351) | inhibitor, FRET |  |  | 96.9 ± 10 µM
CCOC(=O)N1CCC(Oc2nc3c(c(=O)n(C)c(=O)n3C)n2CCC(C)C)CC1 | ALDH1B1 (Homo sapiens, UniProt P30837) |  |  |  | > 57 µM
Cc1ccc2nc(-c3ccc(N=NNc4ccc(-c5nc6ccc(C)c(S(=O)(=O)O)c6s5)cc4)cc3)sc2c1S(=O)(=O)O | Genome polyprotein NS3 helicase domain | protein-DNA complex formation, inhibitor |  | together with: Cy5-dT15 tracer | 7 ± 3 µM
CC(C)NCc1ccc(C[C@@H]2NC(=O)[C@@H](Cc3c[nH]c4ccccc34)NC(=O)[C@H](Cc3ccccc3)NC(=O)[C@@H](N)CSSC[C@@H](C(=O)N[C@H](C(N)=O)[C@@H](C)O)NC(=O)[C@H](Cc3ccc(O)c(I)c3)NC2=O)cc1 | SSTR1 (Homo sapiens, UniProt P30872) | ligand displacement, radioligand |  | cell membranes | 0.889 µM
NC(=O)[C@@H]1CCNC(=O)[C@H](CCCNC(=O)c2cnccn2)NC(=O)[C@H](CC2CCCCC2)NC(=O)[C@H](C/C=C/c2ccccc2)NC(=O)/C=C\C(=O)N1 | SRC SH3-SH2-kinase domain | kinase activity, inhibitor |  | together with: ATP 5 µM | 27 µM
Cc1ccc2nc(-c3ccc4nc(-c5ccc6nc(-c7ccc(N)cc7)sc6c5)sc4c3)sc2c1S(=O)(=O)O | Genome polyprotein NS3 helicase domain | ATPase activity, inhibitor, malachite green |  |  | 15 ± 4 µM
CC(C)n1nc(-c2ccc3cc(OCc4ccccc4)ccc3c2)c2c(N)ncnc21 | Tyrosine-protein kinase HCK, SH3 (HCK, Homo sapiens, UniProt P08631, K245P/K248P) | enzyme activity, inhibitor |  |  | 0.013 µM
N=C(N)NCCC[C@H](NC(=O)[C@@H](Cc1ccccc1)NC(=O)[C@H](Cc1c[nH]cn1)NC(=O)CCc1cn(CC(=O)NCCC(=O)NCCCC(CCCNC(=O)CCNC(=O)Cn2cc(CCC(=O)N[C@@H](Cc3c[nH]cn3)C(=O)N[C@H](Cc3ccccc3)C(=O)N[C@@H](CCCNC(=N)N)C(=O)N[C@@H](Cc3c[nH]c4ccccc34)C(N)=O)nn2)(NC(=O)CNC(=O)CCNC(=O)Cn2cc(CCC(=O)N[C@@H](Cc3c[nH]cn3)C(=O)N[C@H](Cc3ccccc3)C(=O)N[C@@H](CCCNC(=N)N)C(=O)N[C@@H](Cc3c[nH]c4ccccc34)C(N)=O)nn2)C(=O)NCCC(N)=O)nn1)C(=O)N[C@@H](Cc1c[nH]c2ccccc12)C(N)=O (some centres unmarked) | MC4R (Homo sapiens, UniProt P32245) | binding, competitor, time-resolved fluorescence |  | together with: Eu-NDP-α-MSH | ~0.072 µM
COC1=CC(=O)c2cc3c(cc2C1=O)CCCC3(C)C | DNA topoisomerase IB (Leishmania donovani, UniProt A0A3Q8IHS4+Q8WQM6) | DNA relaxation activity, inhibitor |  | together with: supercoiled plasmid DNA | 91.8 ± 8.2 µM
COCCCN1CCc2c(Cc3ccc(Cl)cc3)[nH]c3c(OC(F)F)ccc(c23)C1=O | PDE11A (Homo sapiens, UniProt Q9HCR9) | enzyme activity, inhibitor |  |  | 0.831 µM
C[C@@H](O)[C@H](NS(=O)(=O)NS(=O)(=O)OC[C@H]1O[C@@H](n2cnc3c(N)ncnc32)[C@H](O)[C@@H]1O)C(=O)O | tsaD, with TsaB and TsaE (Escherichia coli, UniProt P05852) | inhibitor |  | together with: TC-AMP 10 µM, ATP 1 mM | 99 µM
C/C=C/C(=O)Nc1ccc2nc(NCCCCCN(C)C)nc(NCCCCCCN(C)C)c2c1 | Histone lysine demethylase PHF8, PHD (PHF8, Homo sapiens, UniProt Q9UPP1) | enzyme activity, inhibitor, TR-FRET |  |  | > 100 µM
OCC1OC(Oc2ccc(C=Cc3cc(O)cc(O)c3)cc2)C(O)C(O)C1O (centres unmarked) | XDH (Bos taurus, UniProt P80457) | uric acid formation, inhibitor |  | pH 10.0, 25 °C, together with: 200 µM xanthine | 25 ± 4 µM
CC[C@H](C)[C@H](NC(=O)[C@H](CCCCN)NC(=O)[C@H](CC(C)C)NC(=O)CNC(=O)[C@@H]1CCCN1C(=O)[C@H](CC(N)=O)NC(=O)[C@H](CCCNC(=N)N)NC(=O)[C@H](CCCCN)NC(=O)[C@H](CCCCN)NC(=O)CNC(=O)[C@H](CCCCN)NC(=O)[C@H](CO)NC(=O)[C@H](C)NC(=O)[C@@H](N)Cc1ccc(O)cc1)C(=O)N1CCC[C@H]1C(=O)N[C@@H](CCCCN)C(=O)O | Mitogen-activated protein kinase 14 (Rattus norvegicus, UniProt P70618) | enzyme activity, inhibitor, fluorescence |  |  | 16 µM

Compound | target | assay | test system | setting | IC50
C#Cc1cccc(Nc2ncnc3cc(OC)c(OCCCN4CCOCC4)cc23)c1 | IGF1R (Homo sapiens, UniProt P08069) | kinase activity, inhibitor |  | together with: ATP 80.8 µM | > 10 µM
N#Cc1c(C(F)(F)F)cc(-c2cccs2)nc1SCc1ccc(C(=O)O)cc1 | KAT2A (Homo sapiens, UniProt Q92830) | enzyme activity, inhibitor, radiometric |  |  | 14.2 µM
COC(=O)C[C@H](NC(=O)[C@H](C)NC(=O)[C@@H](NC(=O)OCc1ccccc1)C(C)C)C(=O)CF | Caspase-1 (CASP1, Homo sapiens, UniProt P29466) | enzyme activity, inhibitor, fluorescence |  |  | 0.024 µM
CC1CCN(Cc2ccc(CNC(=O)Cc3cc(Cl)c4c(c3)OCCO4)cc2)CC1 | Trypanothione synthetase (Trypanosoma brucei brucei, UniProt Q586P2) | enzyme activity, BIOMOL Green phosphate release |  | 1 h preincubation | 13.1 ± 0.7 µM
CC[C@H](C)[C@H](NC(=O)[C@H](CC(C)C)NC(=O)c1ccco1)C(=O)NCC(=O)N[C@@H](CCCN=C(N)N)C(=O)N[C@@H](CC(C)C)C(=O)N[C@@H](CCCN)C(N)=O | F2RL1 (Homo sapiens, UniProt P55085) | ligand displacement |  |  | 3.29 µM
CCCCCCCCCCCCCC(=O)OCC(O)COC1OC(CS(=O)(=O)O)C(O)C(O)C1O (centres unmarked) | DNA polymerase (POLA1, Bos taurus, UniProt A0AAA9TD94) | enzyme activity, inhibitor, radiometric |  |  | 11 µM and 9.1 µM
COC(=O)N1c2ccc3c(nc(Cc4ccccc4)n3[C@@H]3CCC[C@@H](C(=O)O)C3)c2CC[C@@H]1C | Bromodomain and WD repeat-containing protein 1, bromodomain 2 (BRWD1, Homo sapiens, UniProt Q9NSI6) | binding, inhibitor, AlphaScreen |  |  | > 10 µM
Cc1ccc2c(=O)n(-c3ccc([18F])cc3)c(CCN3C(=O)c4cccc(OC(C)C)c4C3=O)nc2c1 | PDE10A (Homo sapiens, UniProt Q9Y233) | cell-free assay, inhibitor, FP |  |  | 0.0021 µM
CC(C)(O)Cn1cc(-c2ccc3nc(OC(F)F)ccc3c2)c2c(N)ncnc21 | Calmodulin-domain protein kinase 1, putative (Cryptosporidium parvum, UniProt A3FQ16) | enzyme activity, inhibitor |  |  | 0.0009 µM
CC(C)(C)n1nc(-c2ccc(Cl)cc2)c2c(N)ncnc21 | Proto-oncogene tyrosine-protein kinase Src, SH2 (SRC, Gallus gallus, UniProt P00523, G530I/P529E/Q528E) | cell-free assay, inhibitor |  |  | 0.074 µM
CC(C)(C)S(=O)(=O)Cc1nc(-c2ccc(F)c(F)c2)cs1 | Trypanothione synthetase (Trypanosoma brucei, UniProt Q586P2) | enzyme activity, inhibitor |  |  | 0.4 µM
CCC(NC(=O)C(CC(C)C)NC(=O)CCc1ccccc1)C(=O)C(=O)NCc1cc(OC)cc(OC)c1 (centres unmarked) | Calpain-2 catalytic subunit (Capn2, Mus musculus, UniProt O08529) | enzyme activity, inhibitor | mouse pons-cerebellum membranes | together with: calcium 2 mM | 0.078 µM
CCCCCCCCCCCCCCCC(=O)SC[C@H](NC(=O)CNC(=O)CNc1ccc([N+](=O)[O-])c2nonc12)C(=O)N[C@H](C(=O)N[C@@H](CCCCN)C(=O)N[C@H](C(=O)N[C@@H](CCCCN)C(=O)N[C@@H](CCCCN)C(N)=O)[C@@H](C)CC)C(C)C | Palmitoyl-protein thioesterase 1 | enzyme activity, inhibitor | lymphoblast or fibroblast lysate | pH 4.7, together with: MUGS-palmitate | 3 µM
O=C(Nc1cccnc1)c1ccccc1OCc1ccccc1 | Phosphatidylcholine:ceramide cholinephosphotransferase 1 (Homo sapiens, UniProt Q86VZ5) | enzyme activity, inhibitor |  |  | 191 µM
COc1cc(N2CCN(C)CC2)ccc1Nc1ncc2c(n1)N(C)c1ccc(C)cc1C(=O)N2CC(F)(F)F | DCLK1 (Homo sapiens, UniProt O15075) | binding, KINOMEscan |  |  | 2.7 µM
CCC(=O)N1CCN(c2ccc(N(C)C(=O)C(C)(C)c3cc(C(F)(F)F)cc(C(F)(F)F)c3)c(-c3ccccc3C)c2)CC1 | TACR1 | nuclear ERK activity, antagonist, FRET biosensor | HEK293T | 30 to 90 min preincubation, together with: substance P 10 nM | 0.347 µM
C#CCOc1cccc(Oc2nc3c(c(=O)n(CCCO)c(=O)n3C)n2Cc2ccc(C3(C(F)(F)F)N=N3)cc2)c1 | TRPC4/TRPC1 (TRPC1/TRPC4, Homo sapiens, UniProt P48995+Q9UBN4) | calcium influx, inhibitor, Fura-2 | HEK T-REx expressing TRPC1/TRPC4 | together with: englerin A 30 nM | 0.002 µM
COc1ccc(S(=O)(=O)NCc2nc(-c3ccccc3)no2)cc1 | Trypanothione synthetase (Trypanosoma brucei, UniProt Q586P2) | enzyme activity, inhibitor |  |  | 11 µM
COc1ccc2nc3cc(Cl)ccc3c(NCCCCc3c(N)nc(N)nc3N)c2c1 | Muscleblind-like protein 1, with (CUG)12 RNA (Homo sapiens, UniProt Q9NR56) | MBNL1-RNA binding, gel mobility shift |  | no tRNA, together with: (CUG)12 RNA, 1000 nM MBNL1 | 37 ± 11 µM
CC(C)(C)c1ccc(C[C@@H]2NC(=O)[C@H](Cc3ccccc3)NC(=O)[C@H](CC3CCCCC3)NC(=O)/C=C/C(=O)N[C@H](C(N)=O)CCCNC2=O)cc1 | SRC SH3-SH2-kinase domain | enzyme activity, inhibitor, Z'-LYTE FRET |  | Src residues 83-533, together with: 50 µM ATP | > 10 µM
CCCCn1c(NN)nc2ccc(C)cc2c1=O | Genome polyprotein, protease (Hepatitis C virus genotype 1b, UniProt O92972) | enzyme activity, inhibitor, FRET |  |  | 23.4 µM
O=C(O)c1csc(S(=O)(=O)NCc2ccc3c(c2)OCO3)c1 | RAD52 (Homo sapiens, UniProt P43351) | DNA binding, inhibitor, FRET |  | 25 °C, together with: Cy3-dT30-Cy5 1 nM | 933 ± 46 µM

For quick reference, copied from above:
Compound | target | assay | test system | setting | IC50
Cc1ccc2c(=O)n(-c3ccc([18F])cc3)c(CCN3C(=O)c4cccc(OC(C)C)c4C3=O)nc2c1 | PDE10A (Homo sapiens, UniProt Q9Y233) | cell-free assay, inhibitor, FP |  |  | 0.0021 µM
CC(C)(O)Cn1cc(-c2ccc3nc(OC(F)F)ccc3c2)c2c(N)ncnc21 | Calmodulin-domain protein kinase 1, putative (Cryptosporidium parvum, UniProt A3FQ16) | enzyme activity, inhibitor |  |  | 0.0009 µM
CC(C)(C)n1nc(-c2ccc(Cl)cc2)c2c(N)ncnc21 | Proto-oncogene tyrosine-protein kinase Src, SH2 (SRC, Gallus gallus, UniProt P00523, G530I/P529E/Q528E) | cell-free assay, inhibitor |  |  | 0.074 µM
CC(C)(C)S(=O)(=O)Cc1nc(-c2ccc(F)c(F)c2)cs1 | Trypanothione synthetase (Trypanosoma brucei, UniProt Q586P2) | enzyme activity, inhibitor |  |  | 0.4 µM
